Published values of several laboratories.
Lines come from different studies, so protocols differ. ± marks the error that the study gave. ≈ marks a conversion by molar mass, not a printed value.

Structure (SMILES)	organism	test	system	setting	scale	quantity	value
CC(C)(C)n1nnnc1C(c1ccc([N+](=O)[O-])cc1)N1CCCc2ccccc21 (stereo not shown)	Schistosoma mansoni	microscopic viability scoring	newly transformed schistosomula	10 µM, 72 h, prescreen		viability reduction	0%
CN[C@H](CC(C)C)C(=O)N[C@H]1C(=O)N[C@@H](CC(N)=O)C(=O)N[C@H]2C(=O)N[C@H]3C(=O)N[C@H](C(=O)N[C@H](C(=O)O)c4cc(O)cc(O)c4-c4cc3ccc4O)[C@H](O)c3ccc(c(Cl)c3)Oc3cc2cc(c3O[C@@H]2O[C@H](CO)[C@@H](O)[C@H](O)[C@H]2O[C@H]2C[C@](C)(N)[C@H](O)[C@H](C)O2)Oc2ccc(cc2Cl)[C@H]1O	Staphylococcus aureus		CAAS-2019-CAAS-2019-02 clinical drug-resistant isolate, 25% plasma			MBC	4 mg/L
N=C(N)NCCC[C@H](NC(=O)CCCCCNC(=O)[C@H](CCCNC(=N)N)NC(=O)[C@H](CCCNC(=N)N)NC(=O)CCCCCNC(=O)[C@H](CCCNC(=N)N)NC(=O)[C@H](CCCNC(=N)N)NC(=O)CCCCCNC(=O)[C@H](CCCNC(=N)N)NC(=O)[C@H](CCCNC(=N)N)NC(=O)CCCCCNC(=O)[C@@H](N)CCCNC(=N)N)C(=O)NCCCCCC(=O)NCCC(=O)O	Escherichia coli		ATCC 25922	1 h, 37 °C, after 12.5% human serum		MIC	96 µM (≈ 183 µg/mL)
COC(=O)N[C@H](C(=O)N1CCC[C@H]1c1ncc(-c2ccc(-c3ccc(-c4cnc([C@@H]5CCCN5C(=O)[C@@H](NC(=O)OC)C(C)C)[nH]4)cc3)cc2)[nH]1)C(C)C	Hepatitis C virus		replicon cells, genotype 1a	75% effect level, with: NS3 inhibitor, ratio 2.5:1		combination index	1.1
N=C(N)c1ccc(OCCC(CCOc2ccc(C(=N)N)cc2)c2ccccc2)cc1 (stereo not shown)	Escherichia coli	checkerboard	mcr-1 polymyxin-resistant	unit not given, with: rifampicin	lower = stronger synergy	FICI	≤ 0.063
CCOC(=O)C1=C(CN2CCOCC2)NC(c2nccs2)=NC1c1ccc(F)cc1Br (stereo not shown)	Hepatitis B virus	measured: HBV pgRNA	chronic HBV infection patients	oral, 240 mg/day, 28 days, with: ritonavir 100 mg/day	baseline: baseline	change in serum pgRNA	-1.78 log10 copies/mL
CS(=O)(=O)CCCn1c(Cn2c(=O)n(CC(F)(F)F)c3ccncc32)cc2cc(Cl)ccc21	respiratory syncytial virus	RT-qPCR	hospitalized infants 1-24 months, nasal swab	oral, 2, 1.5 or 1 mg/kg daily, day 28, low dose by age cohort	baseline: placebo	LS mean difference vs placebo	0 log10 copies/mL
CC(C)C[C@H](NC(=O)[C@H](CCN)NC(=O)[C@H](CCN)NC(=O)[C@@H](Cc1ccccc1)NC(=O)[C@H](CC(C)C)NC(=O)[C@H](CCN)NC(=O)[C@H](CCN)NC(=O)[C@@H](CCN)NC(=O)CCSCCOC(=O)c1ccc(C(C)(C)C)cc1)C(N)=O	Acinetobacter calcoaceticus	BHI agar spot plating		24 h, 37 °C		MBC	32 µM
CC(C)[C@H](NC(=O)[C@H](CCCNC(=N)N)NC(=O)[C@H](Cc1c[nH]c2ccccc12)NC(=O)[C@H](CCCNC(=N)N)NC(=O)[C@H](Cc1c[nH]c2ccccc12)NC(=O)[C@H](Cc1c[nH]c2ccccc12)NC(=O)[C@H](Cc1c[nH]c2ccccc12)NC(=O)[C@H](CCCNC(=N)N)NC(=O)[C@H](Cc1c[nH]c2ccccc12)NC(=O)[C@H](CCCNC(=N)N)NC(=O)CN)C(N)=O	Candida albicans	broth microdilution	17546, RPMI 1640-MOPS	48 h, 30 °C		MIC	8 µM (≈ 13.8 µg/mL)
CC[C@H](C)[C@H](NC(=O)[C@H](C)NC(=O)[C@H](CCCCN)NC(=O)[C@H](CC(C)C)NC(=O)[C@H](C)NC(=O)[C@@H](NC(=O)[C@H](Cc1c[nH]cn1)NC(=O)[C@H](CC(C)C)NC(=O)[C@@H](NC(=O)[C@@H](NC(=O)[C@H](CCCCN)NC(=O)[C@H](C)NC(=O)[C@H](C)NC(=O)[C@H](CO)NC(=O)[C@H](CCCCN)NC(=O)[C@H](Cc1ccccc1)NC(=O)[C@@H](NC(=O)[C@H](CCCCN)NC(=O)[C@H](CC(C)C)NC(=O)[C@H](Cc1ccccc1)NC(=O)[C@H](CO)NC(=O)[C@H](CCCCN)NC(=O)[C@H](Cc1c[nH]c2ccccc12)NC(=O)[C@H](CCCCN)NC(C)=O)[C@@H](C)O)[C@@H](C)O)C(C)C)[C@@H](C)O)C(=O)N[C@@H](CO)C(=O)N[C@@H](CO)C(N)=O	Klebsiella pneumoniae		ATCC 700603 (ESBL)			MBC50	8 mg/L (≈ 2.73 µM)
COc1cc(NC(=O)Cn2ccc3cc(F)c(-c4cnn(C)c4)cc32)cc(OC)c1OC	Plasmodium falciparum	parasite growth, flow cytometry	Dd2-B2 parent	72 h		IC90	0.0297 µM
CCCCCc1cc(OC)c2cc(Cc3cccc(OC)c3)c(=O)oc2c1	Schistosoma mansoni	microscopic viability scoring	newly transformed schistosomula	10 µM, 72 h, prescreen		viability reduction	28.6%
C[C@@H](O[C@H]1OCCN(Cc2n[nH]c(=O)[nH]2)[C@H]1c1ccc(F)cc1)c1cc(C(F)(F)F)cc(C(F)(F)F)c1	Human immunodeficiency virus 1	viral replication	PBMC, subtype H isolate BCF-KITA, R5, NSI			IC50	5.97 µM
CCCCCCCC(C)(C)c1cc(O)c2cc(Cc3ccccc3O)c(=O)oc2c1	Schistosoma mansoni	microscopic viability scoring	newly transformed schistosomula	10 µM, 72 h, prescreen		viability reduction	100%
COc1cc(-c2c(C)cc(O)cc2O[C@@H]2O[C@H](CO)[C@@H](O)[C@H](O)[C@H]2O)oc(=O)c1	Bovine alphaherpesvirus 1	viral replication	MDBK			IC50	0.021 µM
CC(C)(C)c1cc(O)c2cc(Cc3ccccc3)c(=O)oc2c1	Schistosoma mansoni	microscopic viability scoring	newly transformed schistosomula	10 µM, 72 h, prescreen		viability reduction	100%

Structure (SMILES)	organism	test	system	setting	scale	quantity	value
Cc1c2c(nn1C)CSCc1cc(n(C)n1)CSc1cc(c3ccccc3c1)OCCCc1c(C(=O)O)n(C)c3c-2c(Cl)ccc13	Staphylococcus aureus	label-free quantitative proteomics, measured: SAOUHSC_02828 protein	SA113	concentration not given	baseline: untreated control	fold change	9.25
Nc1ncnc2c([C@@H]3N[C@H](CO)[C@@H](O)[C@H]3O)c[nH]c12	Rhinovirus A	viral replication	HRV2 HGP	0.3 µM		inhibition	0%
CNCC(=O)N[C@@H](CO)C(=O)N[C@H]1[C@H](O)[C@@H](O)[C@H](n2ccc(N)nc2=O)O[C@@H]1C(N)=O	Orthotospovirus tomatomaculae	viral infection, half-leaf method	Nicotiana glutinosa	500 µg/mL		inactivation activity	64.7 ± 2.8%
COc1cnc(OC)n2nc(NS(=O)(=O)c3c(OCC(F)F)cccc3C(F)(F)F)nc12	Arabidopsis thaliana		Col-0, seed germination, dark	50 µg/mL, 7 days, 22 °C		stem length inhibition	100%
COc1ccccc1/N=N/c1cc(C(=O)O)ccc1-c1ccc(C(=O)O)cc1	Schistosoma mansoni	microscopic viability scoring	newly transformed schistosomula	10 µM, 72 h, prescreen		viability reduction	12.5%
O=c1ccn([C@@H]2O[C@H](CO)[C@@H](O)[C@H]2O)c(=S)[nH]1	Dengue virus	viral replication	BHK-21, DENV2			EC50	0.58 µM
O=c1oc2ccc(-c3ccccc3)cc2nc1-c1ccc(O)cc1	Schistosoma mansoni	microscopic viability scoring	newly transformed schistosomula	10 µM, 72 h, prescreen		viability reduction	12.5%
C[N+]1=C2C=C(NCCc3ccc(O)cc3)C(=O)c3[nH]cc(c32)CC1	Saccharomyces cerevisiae	cell growth, liquid culture	BY4741	100 µM, 24 h		inhibition	23.6%
Nc1ncnc2c1ncn2[C@@H]1O[C@@H]2COP(=O)(O)O[C@H]3[C@@H](O)[C@H](n4cnc5c(=O)[nH]cnc54)O[C@@H]3COP(=O)(O)O[C@H]2[C@H]1O	West Nile virus	RNA sequencing Reactome analysis, measured: Nicotinate metabolism (R-HSA-196807)	HFF-1	concentration not given, upregulated pathways, with: West Nile virus infection	baseline: WNV-infected without compound	fold enrichment	7.92
C[N+](C)(C)CCCCCCN(CCCCCC[N+](C)(C)C)c1ccc(/C=C/c2ccc(/C=C/c3ccc(/C=C/c4ccc(N(CCCCCC[N+](C)(C)C)CCCCCC[N+](C)(C)C)cc4)cc3)cc2)cc1	Schistosoma mansoni	microscopic viability scoring	newly transformed schistosomula	10 µM, 72 h, prescreen		viability reduction	48.3%
CCCCc1ccc(CNc2nc(N(C)C)nc(N(C)C)c2/N=N/c2ccc(Cl)cc2)cc1	Ostrinia furnacalis	leaf dipping		6.25 mg/L		mortality	33.3%
CCc1cccc(C)c1N(C(=O)CCl)[C@@H](C)COC	Lolium multiflorum			2.1 µg/mL		leaf development	0%
COc1cc2c(cc1OCc1ccccc1)oc(=O)c1c(O)cc(OCc3ccccc3)cc12	Schistosoma mansoni	microscopic viability scoring	newly transformed schistosomula	10 µM, 72 h, prescreen		viability reduction	14.3%
[O-][N+]1=C(c2ccc(Cl)cc2)C2=NCCN2c2ccccc21	Fusobacterium nucleatum					MIC90	0.125 mg/L (≈ 0.42 µM)
CC1(C)S[C@@H]2[C@H](NC(=O)[C@H](N)c3ccccc3)C(=O)N2[C@H]1C(=O)O	Escherichia coli		ΔtolC JW5503-1	200 µM, with: 30 µg/mL 2,2'-bipyridyl		zone of inhibition	13.5 mm

Excerpt of the above:
Structure (SMILES)	organism	test	system	setting	scale	quantity	value
CC(C)[C@H](NC(=O)[C@H](CCCNC(=N)N)NC(=O)[C@H](Cc1c[nH]c2ccccc12)NC(=O)[C@H](CCCNC(=N)N)NC(=O)[C@H](Cc1c[nH]c2ccccc12)NC(=O)[C@H](Cc1c[nH]c2ccccc12)NC(=O)[C@H](Cc1c[nH]c2ccccc12)NC(=O)[C@H](CCCNC(=N)N)NC(=O)[C@H](Cc1c[nH]c2ccccc12)NC(=O)[C@H](CCCNC(=N)N)NC(=O)CN)C(N)=O	Candida albicans	broth microdilution	17546, RPMI 1640-MOPS	48 h, 30 °C		MIC	8 µM (≈ 13.8 µg/mL)
CNCC(=O)N[C@@H](CO)C(=O)N[C@H]1[C@H](O)[C@@H](O)[C@H](n2ccc(N)nc2=O)O[C@@H]1C(N)=O	Orthotospovirus tomatomaculae	viral infection, half-leaf method	Nicotiana glutinosa	500 µg/mL		inactivation activity	64.7 ± 2.8%
COC(=O)N[C@H](C(=O)N1CCC[C@H]1c1ncc(-c2ccc(-c3ccc(-c4cnc([C@@H]5CCCN5C(=O)[C@@H](NC(=O)OC)C(C)C)[nH]4)cc3)cc2)[nH]1)C(C)C	Hepatitis C virus		replicon cells, genotype 1a	75% effect level, with: NS3 inhibitor, ratio 2.5:1		combination index	1.1
Nc1ncnc2c([C@@H]3N[C@H](CO)[C@@H](O)[C@H]3O)c[nH]c12	Rhinovirus A	viral replication	HRV2 HGP	0.3 µM		inhibition	0%
